Measured values collected from several papers.
Every numbered part comes from another study and shows a few of its results, in no order.

Sample 1
Target: Histone acetyltransferase KAT6A, winged helix 1, GST fusion (KAT6A, Homo sapiens, UniProt Q92794, residues 1-85)
Technique: protein binding microarray
Form: double-stranded DNA, one strand shown
Sample: in vitro
Concentration: not given
Notes: 8-mer, flanks averaged, mean of 2 arrays, mostly near background
Relative to: not given
Direction: higher = stronger binding
Measurement: E-score
Residues (chain): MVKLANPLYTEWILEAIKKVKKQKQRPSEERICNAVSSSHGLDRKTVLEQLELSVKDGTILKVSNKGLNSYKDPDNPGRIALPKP
Strand = CATACCGA; result = 0.0177
Strand = ATAAGTGA; result = -0.214
Strand = ATCGTATG; result = -0.192
Strand = ATTTCTAG; result = -0.051
Strand = TAAGATTA; result = -0.0501
Strand = GAGTTATC; result = -0.065
Strand = GAGGACCA; result = -0.147

Sample 2
Substance: PhoQ, residues 284 288 289 292 302 303 SSTMSV
Technique: Sort-seq
Item: YFP reporter
Sample: E. coli
Notes: PhoQ-PhoP variant library
Added: 10 µM Mg2+
Relative to: high Mg2+ state
Direction: higher = stronger signaling
Measurement: fold induction
target = PhoP, residues 12 14 15 18 19 ICWRQ (Escherichia coli, UniProt P23836); result = 5.1
target = PhoP, residues 12 14 15 18 19 VHTVL (Escherichia coli, UniProt P23836); result = 3.49
target = PhoP, residues 12 14 15 18 19 TQCLL (Escherichia coli, UniProt P23836); result = 9.52

Sample 3
Target: Ras GTPase-activating protein-binding protein 1, full length (G3BP1, Homo sapiens, UniProt Q13283)
Chain of UniProt Q13283 (whole entry, looked up): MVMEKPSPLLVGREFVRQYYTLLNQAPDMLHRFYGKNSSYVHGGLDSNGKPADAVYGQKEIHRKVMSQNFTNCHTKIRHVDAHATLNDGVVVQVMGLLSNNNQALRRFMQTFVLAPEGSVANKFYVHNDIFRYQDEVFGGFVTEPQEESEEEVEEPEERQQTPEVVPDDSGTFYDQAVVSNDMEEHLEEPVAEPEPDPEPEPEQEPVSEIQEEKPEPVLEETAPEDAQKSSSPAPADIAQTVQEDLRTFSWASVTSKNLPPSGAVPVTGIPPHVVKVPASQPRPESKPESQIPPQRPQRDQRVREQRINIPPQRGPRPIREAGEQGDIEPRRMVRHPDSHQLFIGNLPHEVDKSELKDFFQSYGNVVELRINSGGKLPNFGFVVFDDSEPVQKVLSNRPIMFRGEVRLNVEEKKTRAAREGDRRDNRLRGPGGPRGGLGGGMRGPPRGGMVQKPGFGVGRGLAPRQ
Technique: RNA Bind-n-Seq
Form: RNA
Sample: in vitro
Concentration: 200 nM
Notes: whole 134-nt RNA, ends assumed
Added: 150 mM LiCl
Relative to: input library
Direction: higher = stronger binding
Measurement: log2 enrichment
Library: 7-deaza-guanosine replaces G
Constant ends, left off below: GGGAGUUCUACAGUCCGACGAUC … UGGAAUUCUCGGGUGUCAAGG
Strand = AAGUCCUGUGCUACACAUCGUAUGUACCGAAUCGGGGAGGGGUUUUUGGGGAGGGGAAAGUAUUAUGUUACGCCGUUCGGAUCUGCACUU; result = 0.729
Strand = UGGCCCUGGUGGCAUGCGGGUAGGAAGAGGUGGCCUCAUGGAUCGUGGUGGUCCCGGUGGAAUGUUCAGAGGUGGCCGUGGUGGAGACAG; result = 0.343
Strand = CUGUGCUACACAUCGUAUGUACCGAAUCGGGUUUUUUUGGGUUUUUUUGGGGUUUUUUUGGAAAGUAUUAUGUUACGCCGUUCGGAUCUG; result = 1.42
Strand = UAACUUUAGAGGAGGAUCUGAUGGAUAUGGCAAUGGACGUGGAUUUGGGGAUGGCUAUAAUGGGUAUGGAGGAGGACCUGGAGGUGGCAA; result = -0.166
Strand = UCCUGUGCUACACAUCGUAUGUACCGAAUCGGGGUUUGGGGAAAAAGGGGUUUUUGGGGAAAGUAUUAUGUUACGCCGUUCGGAUCUGCA; result = 0.0519
Strand = AAGUCCUGUGCUACACAUCGUAUGUACCGAAUCGGUUUUGGGUUUUGGGUUUUGGGAAAGUAUUAUGUUACGCCGUUCGGAUCUGCACUU; result = -0.413
Strand = AGUCCUGUGCUACACAUCGUAUGUACCGAAUCAAAUUUUUAAACCCAAAUUUUUAAAAAAGUAUUAUGUUACGCCGUUCGGAUCUGCACU; result = -1.73
Strand = CACAGACAACACGCACCCACACAGACACAGAGGGAAGGGGUUGGGAUGGGGACAGGGUGCACAGCAGGAAAGGGUAGGACCCCAGCCCCU; result = 0.209

Sample 4
Target: Interferon regulatory factor 3, full length, phosphomimetic (IRF3, Homo sapiens, UniProt Q14653, residues 1-427, S386D/S396D/S398D/S402D/T404D/S405D)
Technique: protein-binding microarray
Form: double-stranded DNA, one strand shown
Sample: in vitro
Concentration: 2540 nM top
Notes: 60-bp whole probe
Added: salmon DNA 0.4 mg/ml
Relative to: random background probes
Direction: higher = stronger binding
Measurement: fitted relative affinity
Constant ends, left off below: GCCTAGCAC … GTCTTGATTCGCTTGACGCTGCTG
Target sequence (chain): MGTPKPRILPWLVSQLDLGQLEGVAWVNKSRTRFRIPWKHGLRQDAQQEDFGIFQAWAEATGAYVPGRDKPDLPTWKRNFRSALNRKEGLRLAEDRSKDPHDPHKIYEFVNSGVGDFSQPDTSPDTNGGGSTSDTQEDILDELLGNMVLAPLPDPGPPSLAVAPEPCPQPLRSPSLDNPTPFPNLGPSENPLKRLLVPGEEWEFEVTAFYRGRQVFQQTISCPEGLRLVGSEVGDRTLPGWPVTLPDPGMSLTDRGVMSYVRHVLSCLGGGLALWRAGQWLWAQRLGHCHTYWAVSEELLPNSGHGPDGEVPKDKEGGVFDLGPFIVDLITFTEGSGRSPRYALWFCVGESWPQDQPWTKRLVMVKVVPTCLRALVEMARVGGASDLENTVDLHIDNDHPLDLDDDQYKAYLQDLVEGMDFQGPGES
Strand = GACGAACTGGGGACTGGACACGTGCTA; result = -0.633 z-score
Strand = GTGCCTTTATATACCTGAATGTGCTAG; result = 1.68 z-score
Strand = TAAGGACTGGACTTTCGGTTAGTGCTA; result = 1.11 z-score
Strand = GACGGACTGCGTTTCGGGACGTGCTAG; result = 1.03 z-score
Strand = TTAGGTTTCGGTTCCGGGTAGTGCTAG; result = 10.3 z-score
Strand = TTAGGTTTCGGGACTGAGTTAGTGCTA; result = 4.09 z-score
Strand = TTAGGTCTCGGCCTGGGTTAGTGCTAG; result = -0.896 z-score
Strand = TCAATCATTGTTTTCAGACTGTGCTAG; result = 0.655 z-score
Strand = GTCGGTATCCTTCTCCTGACGTGCTAG; result = 8.28 z-score
